{"data": "Measurements pooled from the literature", "note": "A part holds a random share of what one study measured."}
{"data": "Study 1", "target": "RING finger protein unkempt homolog, zinc fingers 1-6, GST-SBP tag (UNK, Homo sapiens, UniProt Q9C0B0, residues 30-357)", "technique": "RNA Bind-n-Seq", "molecule type": "RNA", "sample": "in vitro", "concentration": "not given", "setting": "RNA with constant flanks, human and mouse sites, ends assumed", "relative to": "input RNA pool", "reading": "higher = stronger binding", "sequence of UniProt Q9C0B0 (30-357, looked up)": "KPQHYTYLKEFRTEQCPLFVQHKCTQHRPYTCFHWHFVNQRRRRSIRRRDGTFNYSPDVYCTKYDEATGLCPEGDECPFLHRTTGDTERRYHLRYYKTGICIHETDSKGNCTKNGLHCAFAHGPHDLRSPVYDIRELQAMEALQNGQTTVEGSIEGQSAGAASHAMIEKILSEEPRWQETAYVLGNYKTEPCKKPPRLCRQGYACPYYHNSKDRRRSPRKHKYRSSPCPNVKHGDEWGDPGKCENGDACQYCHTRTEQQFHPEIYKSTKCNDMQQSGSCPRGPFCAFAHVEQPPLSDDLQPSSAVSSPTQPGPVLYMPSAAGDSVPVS"}
{"Oligonucleotide": "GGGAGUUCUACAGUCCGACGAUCAAAAUGAAUUUAUGUAUAUAUCAGAUGUCCAAUACUGUAAUUAAUUUAUUAAAGACUGGCUCUCCAGUUUUAAAAUGGUUGUGUAAAGUUAUGUACUUCAGCAAGAAAAAAAUAAUAAUACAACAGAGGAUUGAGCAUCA", "bound/input enrichment [ratio]": 0.826}
{"Oligonucleotide": "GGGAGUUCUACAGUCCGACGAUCGCAGGUGUCAAUAGUGAUAGCCCUAAUAACUGUUCAGGAAAAAAGGUAGAACCUUCAGCUUUAGCUUGCCGAUCACAGAAUUUAAAGGAAUCUUCAGUAAAAGUAGAUAAUGAAAGCUGUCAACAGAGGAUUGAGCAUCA", "bound/input enrichment [ratio]": 0.891}
{"Oligonucleotide": "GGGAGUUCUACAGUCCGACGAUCCGGGUCGACACAAUAUUGGAGUUUUCGCAGAACAUGAACACGAAAUACUAUGGACUACAGAUUUUGGAAAAUGUGAUCAAAACAAGGUGGAAGAUCCUUCCAAGGAACCAGUGUGAAGGACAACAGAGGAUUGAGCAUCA", "bound/input enrichment [ratio]": 0.252}
{"Oligonucleotide": "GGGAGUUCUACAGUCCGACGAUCGGGUCGUGGUUCAUCCAGUCCCUUUGCAGCAUGCUGAAGCUGUACGCGCACAAGCUAGAAUUUAUGCACAUUCUCACUCGCGUUAACAGGAAGGUGGCAACGGAAUUCGAGUCCUUCUCCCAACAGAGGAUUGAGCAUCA", "bound/input enrichment [ratio]": 0.362}
{"Oligonucleotide": "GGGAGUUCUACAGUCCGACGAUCUCUCCUGUGAUCACAUCUUGUCUCGGCUGUAGGAAUCAACAGAAGGAGACGUCCUCUACAUAAAAGCUCCAUGUGAAAAGCUACUCCUAGUCUUAACAUUUGCAGUCCUUGUGUCACUGUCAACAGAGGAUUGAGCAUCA", "bound/input enrichment [ratio]": 0.298}
{"Oligonucleotide": "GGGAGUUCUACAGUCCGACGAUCGGAGCCAGACAUAUGGAAAGUGAGAAACUUGCUCAAAUAUUGGCAGCUAGACAGUUAGAAAUUAAACAGAUUCCAUCUGAUGGCCACUGUAUGUAUAAAGCCAUUGAAGAUCAACUGAAACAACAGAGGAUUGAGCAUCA", "bound/input enrichment [ratio]": 1.86}
{"Oligonucleotide": "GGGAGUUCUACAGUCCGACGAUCCGAAAGUCACCUGAAAUUUCUGAACGAAUUGUACAGUGGCCUGCAAUAACGUACAAACCUCUGUUGGACAAAGCUGGUUUGGGAUCCAUAACUUCUGUUCGCUUUCUGGGAGAUCAACAACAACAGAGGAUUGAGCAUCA", "bound/input enrichment [ratio]": 0.195}
{"Oligonucleotide": "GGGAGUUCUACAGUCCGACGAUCAUAAUAAUGAUGGAACCUCUCCACCCUUUGGUUUACUCCGGAGUUCCUCAGUUGAGGAAAAAUCUUUAUCUCACAGAAAUUCAUUAGAUACAAACCUGACUUCCAUGCUUUUUCAGAACUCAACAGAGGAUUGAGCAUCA", "bound/input enrichment [ratio]": 0.709}
{"Oligonucleotide": "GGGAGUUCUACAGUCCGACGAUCUUUGAUGUCAUGGUGAUGCCUAAUCUCUAUGGUAACAUUGUCAACAACGUCUGUGCAGGGCUAGUUGGAGGCCCAGGCCUUGUGGCUGGGGCCAACUAUGGCCAUGUGUAUGCAGUAUUCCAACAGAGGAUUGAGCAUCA", "bound/input enrichment [ratio]": 0.169}
{"data": "Study 2", "target": "Prothrombin, mature alpha-thrombin (F2, Homo sapiens, UniProt P00734)", "technique": "aptamer microarray, sandwich", "molecule type": "DNA with 2'F-ANA", "sample": "in vitro", "concentration": "200 nM", "setting": "whole 15-mer aptamer, many near background", "with": "Cy3 exosite-II aptamer, 400 nM", "reading": "higher = stronger binding", "oligonucleotide": "GGTTGGTGTGGTTGG"}
{"Modification": "2'F-ANA at 1 2 5 8 9 10 13", "mean fluorescence intensity [a.u.]": 44.8}
{"Modification": "2'F-ANA at 1 2 3 4 5 6 8 9 14", "mean fluorescence intensity [a.u.]": 46.5}
{"Modification": "2'F-ANA at 1 4 5 8 10 11", "mean fluorescence intensity [a.u.]": 51.6}
{"Modification": "2'F-ANA at 1 2 6 7 9 11", "mean fluorescence intensity [a.u.]": 109}
{"Modification": "2'F-ANA at 1 2 4 5 6 7 10 14", "mean fluorescence intensity [a.u.]": 46.6}
{"Modification": "2'F-ANA at 1 2 4 6 8 9 10 11 12 13 14", "mean fluorescence intensity [a.u.]": 47.2}
{"Modification": "2'F-ANA at 2 3 4 8 9 10 12 13 14 15", "mean fluorescence intensity [a.u.]": 167}
{"Modification": "2'F-ANA at 3 4 9 10 11 12 14", "mean fluorescence intensity [a.u.]": 197}
{"Modification": "2'F-ANA at 1 6 9 13 14 15", "mean fluorescence intensity [a.u.]": 50.8}
{"Modification": "2'F-ANA at 2 3 4 5 8 9 11", "mean fluorescence intensity [a.u.]": 85.2}
{"data": "Study 3", "target": "RNA binding protein fox-1 homolog 2, RRM domain, GST-SBP tag (RBFOX2, Homo sapiens, UniProt O43251-10, residues 100-194)", "technique": "RNA Bind-n-Seq", "molecule type": "RNA", "sample": "in vitro", "concentration": "365 nM", "setting": "natural RNA segment, single round, ends assumed", "relative to": "no-protein control", "reading": "higher = stronger binding", "Residues (chain)": "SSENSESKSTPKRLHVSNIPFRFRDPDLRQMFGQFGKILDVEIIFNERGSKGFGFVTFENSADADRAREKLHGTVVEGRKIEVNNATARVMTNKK"}
{"Oligonucleotide": "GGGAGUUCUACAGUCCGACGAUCAUGUUGGGCAAAUAUAUAUAAUUAUUUUUUCUGGUAAAUUCAUGUCAGUAAUUUGUUGAAGAGUUAACAAGAAAAGGUCUUUCUAGAUUGUGUCUAAGAUGAAAUAAAAUUGGAAUUCUCGGGUGCCAA", "RBNS enrichment (R)": 0.411}
{"Oligonucleotide": "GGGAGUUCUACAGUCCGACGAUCGCGUGCAUGUAUCUCUUCACCAUGUCUUCUCUCACCUUCACUAAGGAGUCACCAGAUCAUCUGGCUCAGAUGCUCAGGAUGUAUUCCUUUGGCUUACCCCGUGCUCCUGGUGGAAUUCUCGGGUGCCAA", "RBNS enrichment (R)": 7.11}
{"Oligonucleotide": "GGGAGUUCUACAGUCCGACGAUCCUGGAAGGAAAGAUUCCCAGCAUGCAGUGCUCUCUCCUCCAGGGAGGAGAAUGUGUGCUGGGCUAUGGGAGCCAUGUUCAGAGAUUUGUGUGUGUGUGCCAGAGUAGCUGUGGAAUUCUCGGGUGCCAA", "RBNS enrichment (R)": 1.31}
{"Oligonucleotide": "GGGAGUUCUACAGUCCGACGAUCAGAAUAAGCCUUUUAAGGUAAACCUCAAAAUUAUCAUUUUAUGGUAAUACUGACCAUUUUAGUCCCCUAGGUUUGACAUGGGAGAUAGUGACUACACUGGUGUCUGACUUUGGAAUUCUCGGGUGCCAA", "RBNS enrichment (R)": 3.33}
{"Oligonucleotide": "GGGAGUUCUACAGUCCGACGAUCGAGCCUGUGUCCGCAGCUGCUGCCACUCUGGGCUGCUCCAGCCUGCAACUUAGUGGAAGGAAUUACUUCCUCCUGAGGCUACAGGCGAGAAAGGUAGGGAUGGGCCAGCCUGGAAUUCUCGGGUGCCAA", "RBNS enrichment (R)": 0.414}
{"Oligonucleotide": "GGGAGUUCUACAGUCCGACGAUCAGCUGCUGGCCAGACCCUGGCGCUGCCACAGUCCUGGCACUGCCCAAGGCCAUACCUGCCUAGCCCUUUGGCUCCAUCCUGUGGAUGCCCACUCACCCCUCAGACUCCUGUGGAAUUCUCGGGUGCCAA", "RBNS enrichment (R)": 0.158}
{"Oligonucleotide": "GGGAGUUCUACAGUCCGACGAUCAGCUGAGGCACUUGUCCGUUCGUCUUACCAUCUAACCAAACAAAAGACAAAGAAAUUGUCCUCCAACUCAGCUUUUCCCCCCCUGUUUGGGUGAAAGUGGUUCUAGAACCUGGAAUUCUCGGGUGCCAA", "RBNS enrichment (R)": 0.259}
{"Oligonucleotide": "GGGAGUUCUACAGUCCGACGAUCUCCCAGCACUUGGGAGGCAGAGGCAGGUGAAUUUCUAAGUUCAAGGCCAGCUUGGUCUAUAGAGUGAGUUCCAGGACAGCCAGGACUACACAGAGAAACCCUGUCUCAAAUGGAAUUCUCGGGUGCCAA", "RBNS enrichment (R)": 0.323}
{"Oligonucleotide": "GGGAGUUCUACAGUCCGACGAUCCUCCAAGGACUCUUGUCAGCUGUGUUGGAAGCCAAAGCCAGCUUAGUGGGACUUCCGCGUCUCUCCCUAGUCUUAUCCCCUUUGGAUGAUGGCAGAAACUUCAUGAACCAUGGAAUUCUCGGGUGCCAA", "RBNS enrichment (R)": 0.274}
{"Oligonucleotide": "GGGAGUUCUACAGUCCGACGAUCUAUUUCAAGAUAUGUUCUCAAGCCAAUUGUGUGCUUCUCUUGUUUCUGUGAUUGCUUUCUAGCCAAAGCGAAGCUUGUACAGGUUGAGUAUCCCUUAUCCAAAAUGCUUGUGGAAUUCUCGGGUGCCAA", "RBNS enrichment (R)": 0.419}
{"Oligonucleotide": "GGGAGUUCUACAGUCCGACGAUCACCAGUGAUGGAGAGCCCACCCAAGUCCGACGUCCUGAGACAAUGUCAAACCAUGAUGUUGUCAUUGAGCAGUAGCUCAUGAGCAAUGGCAUGUCUUUCUCCCCUGACCCUGGAAUUCUCGGGUGCCAA", "RBNS enrichment (R)": 0.209}
{"Oligonucleotide": "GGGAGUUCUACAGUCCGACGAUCUGUAUCUAGACUUCAAGGACAGGGUUUGUCUCACAGGAUUGUCACUUAGGAGAUGAAAGAAUAUUACCACAUGAGGAGGAGGGGCAGUUGCAACAGAACACUUUGGUCUUUGGAAUUCUCGGGUGCCAA", "RBNS enrichment (R)": 0.686}
{"data": "Study 4", "target": "Ras GTPase-activating protein-binding protein 1, full length (G3BP1, Homo sapiens, UniProt Q13283)", "technique": "RNA Bind-n-Seq", "molecule type": "RNA", "sample": "in vitro", "concentration": "200 nM", "setting": "whole 134-nt RNA, ends assumed", "with": "150 mM LiCl", "relative to": "input library", "reading": "higher = stronger binding", "library": "7-deaza-guanosine replaces G", "sequence of UniProt Q13283 (whole entry, looked up)": "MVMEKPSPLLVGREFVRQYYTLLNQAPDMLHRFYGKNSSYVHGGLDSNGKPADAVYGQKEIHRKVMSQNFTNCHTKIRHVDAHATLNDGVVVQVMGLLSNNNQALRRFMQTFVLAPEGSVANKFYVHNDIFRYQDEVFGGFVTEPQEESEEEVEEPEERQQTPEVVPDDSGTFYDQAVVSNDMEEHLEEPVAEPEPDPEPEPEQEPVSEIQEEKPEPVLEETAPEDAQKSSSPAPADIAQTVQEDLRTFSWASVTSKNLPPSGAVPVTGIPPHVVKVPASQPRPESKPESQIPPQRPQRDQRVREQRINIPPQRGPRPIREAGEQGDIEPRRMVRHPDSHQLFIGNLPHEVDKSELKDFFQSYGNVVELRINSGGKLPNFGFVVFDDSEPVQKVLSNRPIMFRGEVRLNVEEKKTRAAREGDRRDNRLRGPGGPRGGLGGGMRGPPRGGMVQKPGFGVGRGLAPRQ"}
{"Oligonucleotide": "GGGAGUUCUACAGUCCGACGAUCCACAGACAACACGCACCCACACAGACACAGAGUGAAGGGGUUGGGAUGGGGACAGGGUGCACAGCAGGGCGGGGUAGGACCCCAGCCCCUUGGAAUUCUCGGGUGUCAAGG", "log2 enrichment": 0.17}
{"Oligonucleotide": "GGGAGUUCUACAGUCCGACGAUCGCAGGAAGUAAAAACAAAUGGAAAUGCUUCGAAAAGUGGCAGGGGUGGGGGUUGCUAAGGAAAGGGUGGGAUGGGAGUGGGUAAAGAGUUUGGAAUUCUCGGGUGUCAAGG", "log2 enrichment": 0.0955}
{"Oligonucleotide": "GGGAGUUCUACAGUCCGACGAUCGUCCUGUGCUACACAUCGUAUGUACCGAAUCAAACCCCCCCAAAUUUAAACCCCCAAAAAAGUAUUAUGUUACGCCGUUCGGAUCUGCACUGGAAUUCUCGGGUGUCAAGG", "log2 enrichment": 1.03}
{"Oligonucleotide": "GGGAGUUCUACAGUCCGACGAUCGUGAAUCAAAAACUCUGGUUUUAAGCAACCUCUCCUACAGUGCAACAGAAGAAACUCUUCAGGAAGUAUUUGAGAAAGCAACUUUUAUCAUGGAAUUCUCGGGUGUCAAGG", "log2 enrichment": 1.26}
{"Oligonucleotide": "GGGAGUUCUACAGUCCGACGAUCAAGUCCUGUGCUACACAUCGUAUGUACCGAAUCGGGUUUUUGGGUGGGAAAAAGGGAAAGUAUUAUGUUACGCCGUUCGGAUCUGCACUUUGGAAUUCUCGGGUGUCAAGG", "log2 enrichment": -0.175}
{"Oligonucleotide": "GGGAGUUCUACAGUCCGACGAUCUCCUGUGCUACACAUCGUAUGUACCGAAUCGGUUUUUUGGGGUUUUUUGGGUUUUUUGGAAAGUAUUAUGUUACGCCGUUCGGAUCUGCAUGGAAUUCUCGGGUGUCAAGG", "log2 enrichment": 0.758}
{"note": "For quick reference, copied from above (study 2):"}
{"Modification": "2'F-ANA at 3 4 9 10 11 12 14", "mean fluorescence intensity [a.u.]": 197}
{"Modification": "2'F-ANA at 1 6 9 13 14 15", "mean fluorescence intensity [a.u.]": 50.8}
{"Modification": "2'F-ANA at 2 3 4 5 8 9 11", "mean fluorescence intensity [a.u.]": 85.2}
